Measured values collected from several papers.
Numbered parts are unrelated; each lists some results of a single study.

Sample 1
Target: Transcription factor SOX-2, HMG box (Sox2, Mus musculus, UniProt P48432, residues 41-119)
UniProt P48432, sequence (41-119, looked up): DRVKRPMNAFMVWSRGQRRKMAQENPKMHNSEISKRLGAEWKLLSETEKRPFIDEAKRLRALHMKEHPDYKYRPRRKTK
Technique: Spec-seq
Form: double-stranded DNA, one strand shown
Matrix: in vitro
Tested at: not given
Notes: whole probe, mean of replicates
Relative to: not given
Direction: lower = stronger binding
Shared flanks, not repeated: GAGTCGTCTCGTCAGCAC … CCGTAGAGCACTCAGGTC
Strand	relative binding energy [ln ratio]
CATTAAC	-0.399
GGCGGTT	1.5
CATAATT	-0.661
CATCCAA	0.402
ACAAGTT	-0.182
CATCTAC	0.745
CATTAGA	-0.127
CATATTC	0.149
CATGGAT	-0.0251
CATAAAG	-1.15
CATATAT	-0.277
CATGAGA	0.242
CATGGTC	-0.0576
CATCATA	0.189
CATGCTT	0.438
CTCCGTT	0.897

Sample 2
Target: Centromere-binding protein 1, full length, His-tagged (CBF1, Saccharomyces cerevisiae, UniProt P17106, residues 1-351)
UniProt P17106, sequence (whole entry, looked up): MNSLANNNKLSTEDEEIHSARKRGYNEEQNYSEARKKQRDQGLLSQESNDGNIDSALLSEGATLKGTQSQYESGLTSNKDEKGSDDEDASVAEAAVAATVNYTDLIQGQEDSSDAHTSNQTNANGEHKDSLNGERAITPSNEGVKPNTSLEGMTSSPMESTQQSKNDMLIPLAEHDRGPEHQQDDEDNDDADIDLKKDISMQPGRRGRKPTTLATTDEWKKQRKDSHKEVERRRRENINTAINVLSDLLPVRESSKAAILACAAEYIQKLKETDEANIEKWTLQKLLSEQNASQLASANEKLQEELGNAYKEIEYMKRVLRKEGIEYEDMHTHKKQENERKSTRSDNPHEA
Technique: competition protein-binding microarray
Form: double-stranded DNA, one strand shown
Matrix: in vitro
Tested at: 2 µM
Notes: whole 60-bp probe, lowest competitor level
With: Pho4 competitor, 0.05 µM
Direction: higher = stronger binding
Shared flanks, not repeated: … GTCTTGATTCGCTTGACGCTGCTG
Strand	fluorescence intensity [a.u.]
CGTCCTAGTGATTGCCGCGTGGGTGCCATGAGGAAG	92.3
AGAAGCTAAGACACTGTTCTCTTGACTAAATGAAAG	59.8
AGCAACGTTTAGTGAACCGTGACAAGTTTGGCCAGC	118
TATTCCGGAAGATATCAGGTGAGAGAGAAAAGACAG	229
ACTAGTGGCGACACTCAGGTGGTCCTCGGTGCCTTA	58.3
CACCTCCCGGTATTCAAGATGATGACAGTGAAGAGA	69.9
CGTTTTCAGAAGTGGAATCCTGATCCAATTTGCTCT	66.3
GGCCCCTAGATCCTGCTCGTGAACGATGGACTCGGC	62.8
AAAGCGGTAATTTGTCACACAACTTCACATATCTAT	102
CGTCCTAGTGATTTTCACGTGATTTCCATGAGGAAG	4790
ATATTGATGGATTGTCATGTGATAGATAATTTCGTT	2190
AGAATGGGCGGTTTGCACGTGAAGGTGATGTCTTGT	674
GTTTTGCTAGGTAACCACGTTGGTCTAGAAATCGCA	115
AGTGTTTCAAGCCATCACGTCGACTAACGACAAAGT	112
GTCTTGTCTCATTGACGCGTGGGTGTCCCCACTTCA	85.1
ACACCCGTACACCACCATGTGCGTTATTGAAAAACT	101
TGAAGACCCACCCATCACGTCTATCCCGCCAGAGTC	76.8
ACACTTTGGTTCTTCGACATGATAAAGTAAAACAAC	80.3
CGTCCTAGTGATTGTCACTCAACTTCCATGAGGAAG	93.5
TGCGCAACAACTTGTCACGTGACTTTATGTCTAGAA	31300
GGATAATTTTCAGGACACGTGTTTCGAAAGGTTTGT	2180
CACCTAACAGGCCGTCACGGCCCTGCATCGCAGATT	68.4

Sample 3
Target: Ras GTPase-activating protein-binding protein 1, RRM domain (G3BP1, Homo sapiens, UniProt Q13283)
UniProt Q13283, sequence (whole entry, looked up): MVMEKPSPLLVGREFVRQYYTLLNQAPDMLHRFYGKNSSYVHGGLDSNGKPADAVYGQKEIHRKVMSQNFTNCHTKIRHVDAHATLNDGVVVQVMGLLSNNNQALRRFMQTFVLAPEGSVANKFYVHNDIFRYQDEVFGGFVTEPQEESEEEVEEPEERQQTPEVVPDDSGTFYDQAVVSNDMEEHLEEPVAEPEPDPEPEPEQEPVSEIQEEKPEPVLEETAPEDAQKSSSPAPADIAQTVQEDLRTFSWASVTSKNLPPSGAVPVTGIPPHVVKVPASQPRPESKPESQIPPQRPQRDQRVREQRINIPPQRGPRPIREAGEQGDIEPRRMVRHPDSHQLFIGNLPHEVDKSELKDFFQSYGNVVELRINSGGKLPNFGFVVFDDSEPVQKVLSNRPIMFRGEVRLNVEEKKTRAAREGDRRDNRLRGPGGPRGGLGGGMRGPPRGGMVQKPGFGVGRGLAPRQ
Technique: RNA Bind-n-Seq
Form: RNA
Matrix: in vitro
Tested at: 1 µM
Notes: whole 134-nt RNA, ends assumed
With: 150 mM KCl
Relative to: input library
Direction: higher = stronger binding
Shared flanks, not repeated: GGGAGUUCUACAGUCCGACGAUC … UGGAAUUCUCGGGUGUCAAGG
Strand	log2 enrichment
CUGUGCUACACAUCGUAUGUACCGAAUCGGCCCCCCCGGGCCCCCCCGGGGCCCCCCCGGGGAAAGUAUUAUGUUACGCCGUUCGGAUCU	-0.559
GUCCUGUGCUACACAUCGUAUGUACCGAAUCGGGGAAAGGGGAGGGGUUUUUUUGGGGAAAGUAUUAUGUUACGCCGUUCGGAUCUGCAC	1.05
UACCUUUAGAGGAGGAUCUGAUGGAUAUGGCAGUGGACGUGGAUUUGGGGAUGGCUAUAAUGGGUAUGGAGGAGGACCUGGAGGUGGCAA	-0.784
ACCAUGCAGGUGGGCAUCUUUGGGAAGUGGGGCAAGGGGGGGAUAGGGAGGGGGGUAACACUUUGGGAACAGGUGGUCCCAGGUAGUUUC	0.818
CCAGAGCCAGAGAGCUUGGGCCCUGGGACGCCUGGGUUCCCCGAGCAGGAGGAAGACGAACUUCACCGCACCCUGGGCGUGGAGCGGUUU	-0.621
CACAGACAACACGCACCCACACAGACACAGAGGGAAGGGGUUGGGAUGGGGACAGGGUGCACAGCAGGGCGGGGUACGACCCCAGCCCCU	-0.263
UAACUUUAGAGGAGGAUCUGAUGGAUAUGGCAGUGGACGUGGAUUUGGGGAUGGCUUUAAUGGGUAUGGAGGAGGACCUGGAGGUGGCAA	-0.676
UCCUCAAGUCCUGUGCUACACAUCGUAUGUACCGAAUCGGGAGGAGGGAGGGAAAGUAUUAUGUUACGCCGUUCGGAUCUGCACUUCCAG	0.272
UGGCAGAGAAAUUGCAGCUGCAGGAGCAGCUCCAGGCAGAAACCGAGCUGUGUGCCGAGGCUGAGGAGCUCCGGGCCCGCCUGACCGCCA	-0.282
UGUGCUACACAUCGUAUGUACCGAAUCGGGGCCCCCCCGGGGCCCCCCCGGGGCCCCCCCGGGAAAGUAUUAUGUUACGCCGUUCGGAUC	-0.709
CAAGUCCUGUGCUACACAUCGUAUGUACCGAAUCGGGAAAGGGAAAGGGUUUGGGAAAGUAUUAUGUUACGCCGUUCGGAUCUGCACUUC	0.717
GCAGGAAGUAAAAACAAAUGGAAAUGCUUCGGAUAGUGGCAGGGGUGGGGGUUGCUAAGGAAAGGGUGGGAUAGGAGUGGGUAAAGAGUU	1.25
CACAGACAACACGCACCCACACAGACACAGAGGGAAGGGGUUGGGAUGGGGACAGGGUGCACAGCAGGGCGGGGUAAAACCCCAGCCCCU	-0.0584
CACAGACAACACGCACCCACACAGACACAGAGGGAAGGGGUUGGGAUGGGGACAAAGUGCACAGCAGGGCGGGGUAGGACCCCAGCCCCU	-0.142

Sample 4
Target: Interferon regulatory factor 3, full length, phosphomimetic (IRF3, Homo sapiens, UniProt Q14653, residues 1-427, S386D/S396D/S398D/S402D/T404D/S405D)
Technique: protein-binding microarray
Form: double-stranded DNA, one strand shown
Matrix: in vitro
Tested at: 2540 nM top
Notes: 60-bp whole probe
With: salmon DNA 0.4 mg/ml
Relative to: random background probes
Direction: higher = stronger binding
Shared flanks, not repeated: GCCTAGCAC … GTCTTGATTCGCTTGACGCTGCTG
Residues (chain): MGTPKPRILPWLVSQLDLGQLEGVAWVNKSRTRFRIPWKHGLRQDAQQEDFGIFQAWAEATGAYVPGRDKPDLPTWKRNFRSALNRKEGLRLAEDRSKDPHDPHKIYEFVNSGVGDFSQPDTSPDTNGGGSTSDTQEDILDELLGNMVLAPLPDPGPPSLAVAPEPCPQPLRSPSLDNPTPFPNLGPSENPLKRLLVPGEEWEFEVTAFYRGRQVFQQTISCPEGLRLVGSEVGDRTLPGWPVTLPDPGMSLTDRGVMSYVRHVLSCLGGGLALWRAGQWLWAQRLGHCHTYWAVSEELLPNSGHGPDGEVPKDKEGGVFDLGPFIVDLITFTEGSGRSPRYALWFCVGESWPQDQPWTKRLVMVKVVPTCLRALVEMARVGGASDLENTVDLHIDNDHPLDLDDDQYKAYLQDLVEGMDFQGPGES
Strand	fitted relative affinity [z-score]
ATGGCTCTCTGGACTGTGTGTGTGCTA	-1.26
TTAGATTTCAGTTTCGAGTAGTGCTAG	4.22
TTTGCTCTGTGCATAGGTCTGTGCTAG	-0.39
TGAGATTTCAGTTCCGATTAGTGCTAG	3.59
TTAGATTTCGGGTATCGAGTAGTGCTA	1.14
TCATGCCTGTTTTTCCCACTGTGCTAG	0.369
GACGATTTCGGGTATCGAAACGTGCTA	2.26
TTAGGACTGCTTTTCTTTTAGTGCTAG	1.29
CACGGTTTCCTTTTCCTGACGTGCTAG	10.6
GGAGGTCTGGATGTGCCGCGGTGCTAG	-1.12
TTAGGTCGCCTTCTCCTTTAGTGCTAG	1.94
TTAGGTATCGGTCTCGGTAAGTGCTAG	4.76
TTAGATCTCATTATCGATTAGTGCTAG	1.06
GACGGTCTCCTTATTCTGACGTGCTAG	2.45
TCAAATTTTTGCATCGTACTGTGCTAG	-0.0339
AACCTTATTAAGATTGTGCAAGTGCTA	0.644
GACGATTTCAGACTGGAGACGTGCTAG	0.965
TTTCCTTTACATTCCCCATTGTGCTAG	7.69
TGCTTTCTCTTTCACTGCTGGTGCTAG	3.91
ATATACCTGTATATCTTCAGGTGCTAG	0.515
GACGATCTCAGTCTCGCGACGTGCTAG	0.659
GACGGTTTCGGCCTGGGGACGTGCTAG	3.12
TCATAAATGATATATATCACTGTGCTA	0.401
TTAGATTTCAGCCTGGATTAGTGCTAG	-0.17
TTACGTATCGGACTGGGTTAGTGCTAG	1.43

A few entries again (sample 3):
Strand	log2 enrichment
UACCUUUAGAGGAGGAUCUGAUGGAUAUGGCAGUGGACGUGGAUUUGGGGAUGGCUAUAAUGGGUAUGGAGGAGGACCUGGAGGUGGCAA	-0.784
ACCAUGCAGGUGGGCAUCUUUGGGAAGUGGGGCAAGGGGGGGAUAGGGAGGGGGGUAACACUUUGGGAACAGGUGGUCCCAGGUAGUUUC	0.818
CCAGAGCCAGAGAGCUUGGGCCCUGGGACGCCUGGGUUCCCCGAGCAGGAGGAAGACGAACUUCACCGCACCCUGGGCGUGGAGCGGUUU	-0.621
CACAGACAACACGCACCCACACAGACACAGAGGGAAGGGGUUGGGAUGGGGACAGGGUGCACAGCAGGGCGGGGUACGACCCCAGCCCCU	-0.263
UAACUUUAGAGGAGGAUCUGAUGGAUAUGGCAGUGGACGUGGAUUUGGGGAUGGCUUUAAUGGGUAUGGAGGAGGACCUGGAGGUGGCAA	-0.676
UCCUCAAGUCCUGUGCUACACAUCGUAUGUACCGAAUCGGGAGGAGGGAGGGAAAGUAUUAUGUUACGCCGUUCGGAUCUGCACUUCCAG	0.272
UGGCAGAGAAAUUGCAGCUGCAGGAGCAGCUCCAGGCAGAAACCGAGCUGUGUGCCGAGGCUGAGGAGCUCCGGGCCCGCCUGACCGCCA	-0.282
UGUGCUACACAUCGUAUGUACCGAAUCGGGGCCCCCCCGGGGCCCCCCCGGGGCCCCCCCGGGAAAGUAUUAUGUUACGCCGUUCGGAUC	-0.709
CAAGUCCUGUGCUACACAUCGUAUGUACCGAAUCGGGAAAGGGAAAGGGUUUGGGAAAGUAUUAUGUUACGCCGUUCGGAUCUGCACUUC	0.717
